Published values pooled from the literature.
Protocols differ between the studies behind these lines. “And” joins repeats or separate records; there may be more than shown. ± gives the spread as reported.
Nuclear receptor subfamily 2 group C member 2 ligand-binding domain: Nuclear receptor subfamily 2 group C member 2, ligand-binding domain (Homo sapiens, UniProt P49116)
UniProt P49116, sequence (whole entry, looked up): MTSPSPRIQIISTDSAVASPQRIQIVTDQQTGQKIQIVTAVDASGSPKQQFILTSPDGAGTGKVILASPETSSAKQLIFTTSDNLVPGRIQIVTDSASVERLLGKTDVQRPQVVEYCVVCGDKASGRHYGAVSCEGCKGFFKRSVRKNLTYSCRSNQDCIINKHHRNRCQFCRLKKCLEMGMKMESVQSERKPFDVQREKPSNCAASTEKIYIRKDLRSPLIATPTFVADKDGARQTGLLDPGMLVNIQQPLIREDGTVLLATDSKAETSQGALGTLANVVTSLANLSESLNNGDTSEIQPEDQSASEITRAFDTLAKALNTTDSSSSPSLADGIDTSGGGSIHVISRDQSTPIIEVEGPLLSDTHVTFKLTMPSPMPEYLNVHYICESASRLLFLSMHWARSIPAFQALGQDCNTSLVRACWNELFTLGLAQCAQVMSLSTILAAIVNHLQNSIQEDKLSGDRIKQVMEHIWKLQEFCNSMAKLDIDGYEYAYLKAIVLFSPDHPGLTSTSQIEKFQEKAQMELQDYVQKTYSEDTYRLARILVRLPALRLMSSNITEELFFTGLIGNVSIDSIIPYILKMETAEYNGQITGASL
YWHAG/RELA phospho-Ser45 p65 peptide: YWHAG/RELA, phospho-Ser45 p65 peptide (Homo sapiens, UniProt P61981+Q04206)
UniProt P61981, sequence (whole entry, looked up): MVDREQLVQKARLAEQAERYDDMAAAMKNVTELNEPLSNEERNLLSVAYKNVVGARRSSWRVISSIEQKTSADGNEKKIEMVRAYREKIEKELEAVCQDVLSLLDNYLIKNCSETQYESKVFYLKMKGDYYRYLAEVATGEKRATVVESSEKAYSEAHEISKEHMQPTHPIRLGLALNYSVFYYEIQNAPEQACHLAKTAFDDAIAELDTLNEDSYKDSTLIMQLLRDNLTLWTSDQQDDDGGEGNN
UniProt Q04206, sequence (whole entry, looked up): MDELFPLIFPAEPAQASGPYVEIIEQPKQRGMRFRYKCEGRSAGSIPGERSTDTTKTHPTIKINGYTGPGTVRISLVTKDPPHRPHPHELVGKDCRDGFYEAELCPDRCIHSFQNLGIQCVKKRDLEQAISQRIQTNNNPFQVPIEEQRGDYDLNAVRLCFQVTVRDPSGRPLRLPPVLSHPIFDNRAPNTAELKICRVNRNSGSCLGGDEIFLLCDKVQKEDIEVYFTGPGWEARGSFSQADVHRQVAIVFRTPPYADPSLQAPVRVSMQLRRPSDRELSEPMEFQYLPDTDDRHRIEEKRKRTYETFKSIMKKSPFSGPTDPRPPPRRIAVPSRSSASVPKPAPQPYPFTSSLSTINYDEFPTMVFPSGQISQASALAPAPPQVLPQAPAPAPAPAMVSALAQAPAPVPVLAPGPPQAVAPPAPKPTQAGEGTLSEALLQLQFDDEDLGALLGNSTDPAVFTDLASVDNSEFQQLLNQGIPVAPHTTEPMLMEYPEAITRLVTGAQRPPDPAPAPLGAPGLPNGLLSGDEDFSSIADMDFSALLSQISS

NC(=O)[C@H](CCCN=C(N)CCl)NC(=O)c1ccccc1 gave a viability of 137% (OCI-Ly1; 0.5 µM, 120 h).
Under “normalized enrichment score”, O=c1[nH]nc(OCCCc2ccc(Cl)cc2)c(NCc2cccnc2)c1Br is recorded as -1.16 (HEK-293T; RNA-seq GSEA, measured: HALLMARK_EPITHELIAL_MESENCHYMAL_TRANSITION; concentration not given; direction not given).
CC1=NN(c2ccc(C(=O)O)cc2)C(=O)/C1=C\c1ccc(-c2cc(C)c(C)cc2[N+](=O)[O-])o1 gave a viability of 95% (OCI-Ly1; 1 µM, 120 h).
O=C(COc1cccc2c1C(=O)N(C1CCC(=O)NC1=O)C2=O)NCCOCCOCCNS(=O)(=O)Nc1cccc(-c2cn3cc(C(=O)NC4CCC4)ccc3n2)c1 (centres unmarked) — result for “log2 fold change”: -0.057 (MV4-11; TMT proteomics, measured: ALDOA; whole proteome; 10 µM, 4 h; relative to: DMSO).
COc1cc(/C=C/C(=O)N2CCC=CC2=O)cc(OC)c1OC gave a mRNA level of 164% (MDA-MB-468; quantitative RT-PCR, measured: SOD1; 30 µM, 8 h; relative to: untreated cells).
With Cn1c(Nc2nc3ccc(C(F)(F)F)cc3s2)nc2cc(C(=O)NCCOCCO)ccc21 the fold change was 2.13 (SH-SY5Y; RNA-seq, measured: CXCL12 mRNA; 5 µM, 5 h; relative to: untreated cells).
CCn1c(=O)/c(=C2\Sc3cc(Cl)ccc3N2C)s/c1=C\c1scc[n+]1Cc1ccccc1.[Cl-]: “fitted bottom MyBP-C/MYH ratio” 0% (iPSC-derived cardiomyocytes; concentration-response fit; relative to: vehicle).
For CC(=O)Nc1cccc(-n2c(=O)n(C3CC3)c(=O)c3c(Nc4ccc(I)cc4F)n(C)c(=O)c(C)c32)c1, the fractional effect was 93% (COLO 205 (BRAF V600E); 50.00 nM; relative to: DMSO).
With CCCCN1CCN(c2ccc3[nH]c(-c4ccc5[nH]c(-c6cc(OC)c(OC)c(OC)c6)nc5c4)nc3c2)CC1 the growth percent was 50.6% (786-0; cell growth, NCI-60 SRB; 10 µM, 48 h).
COc1cc2ncnc(Nc3ccc(Oc4ccccc4)cc3C)c2cc1OC.O=C(O)C(F)(F)F has a fractional effect of 22% (COLO 205 (BRAF V600E); resazurin; 1 µM, 72 h, with: trametinib 0 nM).
Nc1ncnc2c1ncn2[C@@H]1O[C@H](CO)[C@@H](O)[C@H]1O has a maximal OCR of 51.5 and 54.6 and 66.1 and 42.4 and 49 and 40.6 (activated human T cells; 4 h, unit not given; relative to: vehicle).
Cc1cc(Nc2ncc(Cl)c(Nc3ccccc3S(=O)(=O)C(C)C)n2)c(OC(C)C)cc1C1CCNCC1 — result for “log2 fold change”: -3.12 (CLB-BAR; phosphoproteomics LC-MS/MS, measured: CCT2 phosphorylation; 200 nM, 60 min; relative to: untreated).
With CC/C(=N\NC(=O)NCc1cccc(O)c1)c1ccc(O)c(C)c1O the log ratio was -3.12 (SK-OV-3; gene expression, microarray, measured: TNFSF10; 10 µM, 24 h; relative to: DMSO).
Nc1ncn([C@H]2C[C@H](O)[C@@H](CO)O2)c(=O)n1 gave a viability of 24.7% (OCI-Ly1; 0.5 µM, 120 h).
COc1ccc(NC(=S)N/N=C/c2cccc3cc4ccccc4nc23)cc1: “G2/M phase cells” 10.4 ± 0.6% (HeLa; PI flow cytometry; IC25, 48 h, with: N-acetylcysteine).
The Kd of COc1ccc([C@H]2CNC(=O)C2)cc1OC1CCCC1 is reported as 0.0165 nM (Nuclear receptor subfamily 2 group C member 2 ligand-binding domain; SPR imaging).
With Cn1cc(-n2cnc3c(NCc4nc5cc(Cl)c(Cl)cc5[nH]4)nc(N4CCOCC4)nc32)cn1 the mRNA level was 0.682 and 0.603 and 0.475 (MDA-MB-231; qRT-PCR, measured: ATM; 0.05 µM, 6 h, unit not given; relative to: DMSO).
FC(F)(F)Oc1ccc(CNc2ccc3c[nH]nc3c2)cc1 gave a viability of 116 ± 7.68% (sample A patient iPSC-derived NPCs; MTS; 10 µM, 24 h; relative to: vehicle).
For Cn1cc(-c2ccc(-c3cncc(Cl)c3N3CCC4(CCNC4=O)CC3)cc2)cn1, “log2 fold change” read 2.23 (COLO 205; gene expression, microarray, measured: DDR1 mRNA; concentration not given, 2 h; relative to: untreated cells).
COc1cccc2c1C(=O)c1c(O)c3c(c(O)c1C2=O)C[C@@](O)(C(=O)CO)C[C@@H]3O[C@H]1C[C@H](N)[C@H](O)[C@H](C)O1 gave a maximal cytotoxicity of 92.2% (NCI-H292; WST-1; concentration not given, 72 h, highest tested concentration).
For CCN(CCO)CCCC(C)Nc1ccnc2cc(Cl)ccc12 (centres unmarked), “steady funny current” read 0.9 and 1.41 and 1.16 and 0.97 (hiPSC-derived ventricular cardiomyocytes; perforated patch voltage clamp; 10 µM, 3-5 min, unit not given; relative to: pre-drug control).
CCCCc1nc(Cl)c(CO)n1Cc1ccc(-c2ccccc2-c2nn[nH]n2)cc1 — result for “log2 fold change”: 1.9 (human PBMC; RNA-seq, measured: HMGN2P46 mRNA; 10 µg/mL, 24 h; relative to: untreated control).
FC(F)(F)Oc1ccc(CNc2ccc3nc(S)[nH]c3c2)cc1 — result for “reduction in viability”: 5% (sample A patient iPSC-derived NPCs; MTS; 10 µM, 24 h).
Under “TIGIT positive cells”, C[C@H]1[C@H](C)CC[C@]2(C)CC[C@]3(C)C(=CC(=O)[C@@H]4[C@@]5(C)CC[C@@H](O)[C@](C)(C(=O)NCc6cn(-c7cccc(Br)c7)nn6)[C@@H]5CC[C@]43C)[C@H]12 is recorded as 8.36% (human PBMCs; flow cytometry; 10 µM; relative to: CD8+ T cells).
The dead cells of O=C(Nc1ccccc1OS(=O)(=O)c1ccc(F)cc1)c1ccc2ncccc2c1 is reported as 25% (P2X7R-transfected MCF7; propidium iodide flow cytometry; 5 µM, 18 h, with: Bz-ATP; relative to: control).
The EC50 of CC1CCCN(c2cc(C=O)ccc2[N+](=O)[O-])C1 (centres unmarked) is reported as over 1000 µM (YWHAG/RELA phospho-Ser45 p65 peptide; ternary complex formation, stabilizer, fluorescence anisotropy).
CC[C@H](C)n1cc(C)c2c(C(=O)NCc3c(C)cc(C)[nH]c3=O)cc(-c3ccc(N4CCNCC4)nc3)cc21 gave a viability of 152% (OCI-Ly1; 0.5 µM, 120 h).
C=C1C(=O)O[C@H]2[C@H]1CCC(C)=C1CC[C@@](C)(O)[C@@H]12 gave an EC50 of over 50 µM (iPSC-derived cardiomyocytes; concentration-response curve, measured: MyBP-C protein level).
For CCC(=O)N1CCOc2c(cc(-c3ccc(OC)c(OC)c3)cc2OC[C@H]2CCCN(C)C2)C1, the viability was 135% (OCI-Ly1; 0.1 µM, 120 h).
Cc1ncsc1-c1ccc([C@H](C)NC(=O)[C@H]2C[C@H](O)CN2C(=O)[C@@H](NC(=O)CCCCCCCCCNC(=O)c2ccc3c(c2)[C@H](NC(=O)c2cc(-c4ccc(C(=O)N(C)C)c(O)c4)on2)CC3)C(C)(C)C)cc1: “log2 fold change” -0.425 (MV4-11; TMT proteomics, measured: RNPC3 protein; concentration not given, 6 h; relative to: DMSO).
The EC50 of CN(C)C(=O)N1CCN(C(=O)c2ccc(C=O)cc2)CC1 is reported as over 1000 µM (YWHAG/RELA phospho-Ser45 p65 peptide; ternary complex formation, stabilizer, fluorescence anisotropy).
For Cc1cc(=O)[nH]n1-c1nc(-c2ccc(Cl)cc2)c2c(NC(=O)c3ccccc3)nnc-2[nH]1, the growth percent was 102% (786-0; NCI60 SRB; 10 µM).
Cn1nnc2c(C(N)=O)ncn2c1=O has a Kd of 18.2 nM (Nuclear receptor subfamily 2 group C member 2 ligand-binding domain; SPR imaging).
The Emax of COc1cc(N2CCC(N3CCN(C)CC3)CC2)ccc1Nc1ncc(Cl)c(Nc2ccccc2P(C)(C)=O)n1 is reported as 98.8% (Ba/F3 EML4-ALK v3, no mutation; cell viability).
Cc1cccc(-c2[nH]c(CNc3ccccc3F)nc2-c2ccc3ncnn3c2)n1 has a viability of 13% and 17% and 12% (MM1.S; XTT; 3 µM).
CN(C)c1ccc2nc3ccc(=[N+](C)C)cc-3sc2c1: mIPSC frequency “decreased” (mouse CA1 pyramidal neurons; patch clamp; hippocampal slices; 10 µM).
COc1ccc2c(c1)NC(=O)CN2c1nc(C)nc2c1CCC2: “lowest effective concentration” 0.5 nM (HCI-10-Luc2; chemotaxis; with: human HGF 50 nM).
NC(=O)[C@H](CCCN=C(N)CF)NC(=O)c1ccccc1 gave a viability of 180% (OCI-Ly1; 0.1 µM, 120 h).
With O=C(/C=C/C=C/C=C/C1CCCCC1)NC1=C[C@@](O)(/C=C/C=C/C=C/C(=O)NC2=C(O)CCC2=O)[C@@H]2O[C@@H]2C1=O the GI50 was 20.8 µM (WM793; cell growth, CellTiter-Glo; 78 h).
For CCn1cc(-c2cc(Cn3ccnc3)cc3c2CCN([C@H](c2cc(OC)ccn2)C2CC2)C3=O)c(C(F)(F)F)n1, the EC50 was 3.31 µM (HCC1954; cell growth, inhibitor; 120 h).
CCNC(=O)c1noc(-c2cc(C(C)C)c(O)cc2O)c1-c1ccc(CN2CCOCC2)cc1 — result for “fitted bottom MyBP-C level”: 32.6% (iPSC-derived cardiomyocytes; concentration-response fit; concentration not given; relative to: vehicle).
For CCn1cc(-c2cc(Cn3ccoc3=N)cc3c2CCN([C@@H](C)c2cc(OC)ccn2)C3=O)c(C(F)(F)F)n1, the EC50 was 0.358 µM (SW1417; cell growth, inhibitor; 120 h).
Nc1cccc2c1C(=O)N(C1CCC(=O)NC1=O)C2=O (centres unmarked): “surface marker level” 57.3% (RPMI-8226; flow cytometry, measured: CD91; concentration not given; relative to: comparator compound alone).
COc1cccc(CN(CCN(CCN(C)C)Cc2ccccc2)Cc2ccccc2)c1 — result for “cells in G1 phase”: 92% (WI-38 quiescent cells; 10 µM, 21 h, cell cycle re-entry, with: 10% FBS).
Under “fitted bottom MyBP-C/MYH ratio”, COc1cc(NC(C)CCCN)c2ncccc2c1 (centres unmarked) is recorded as 0% (iPSC-derived cardiomyocytes; concentration-response fit; relative to: vehicle).
For CCCCc1oc2ccc(NS(C)(=O)=O)cc2c1C(=O)c1ccc(OCCCN(CCCC)CCCC)cc1, the fold change was 4.5 fold (human embryonic stem cell aggregates; mRNA level, microarray, measured: TBX6; 0.5 µM, 120 h; relative to: untreated, down-regulated).
For CCOC(=O)NCCCC(=O)NCCc1ccccc1, the viability was 155% (OCI-Ly1; 0.5 µM, 120 h).
For [Cl-].[Cl-].[Ru+2].c1cnc2c(c1)ccc1cccnc12.c1cnc2c(c1)ccc1cccnc12.c1csc(-c2ccc(-c3ccc(-c4nc5c6cccnc6c6ncccc6c5[nH]4)s3)s2)c1, the EC50 was 66.4 µM (SK-MEL-28; resazurin viability; dark, normoxia).
COc1cc(/C=C/c2ccc(O)cc2)cc(OC)c1 — result for “fitted bottom MyBP-C/MYH ratio”: 0% (iPSC-derived cardiomyocytes; concentration-response fit; relative to: vehicle).
The toxicity of CC(=O)c1nn(-c2ccc(Cl)cc2)/c(=N/N=C(\C)c2ccc(NC(=O)c3ccc(C)cc3)cc2)s1 is reported as 54.8% (HepG2; 0.156 µM).
Cn1cc(Nc2nccc(-c3ccc4c(c3)CN(C3COC3)CC[C@H]4NC(=O)c3cn(C(C)(C)C)nn3)n2)cn1 — result for “pathway activation z-score”: 3.78 (mouse splenic B cells; measured: Gαq signalling; 30 mg/kg, IgD-activated in vivo; relative to: vehicle, direction not given).
The viability of O=C1CCc2c(ccc3ccccc23)O1 is reported as 173% (OCI-Ly1; 0.5 µM, 120 h).
The EC50 of COc1cnc2cccc(N3CCc4c(cc(Cn5ccnc5C)cc4-c4cn(C)nc4C(F)(F)F)C3=O)c2c1 is reported as 0.0643 µM (MV4-11; cell growth, inhibitor; 120 h).
